Assay results gathered from unrelated publications.
Numbered parts are unrelated; each lists some results of a single study. Substitutions count along the parent as printed.

Block 1
Target: RNA binding protein fox-1 homolog 2, RRM domain, GST-SBP tag (RBFOX2, Homo sapiens, UniProt O43251-10, residues 100-194)
Method: RNA Bind-n-Seq
Form: RNA
Medium: in vitro
Concentration: 365 nM
Notes: natural RNA segment, single round, ends assumed
Reference: no-protein control
Direction: higher = stronger binding
Construct (chain): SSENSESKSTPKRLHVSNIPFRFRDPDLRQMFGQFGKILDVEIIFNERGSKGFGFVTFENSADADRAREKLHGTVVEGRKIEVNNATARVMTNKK
Sequence | RBNS enrichment (R)
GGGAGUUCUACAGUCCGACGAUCUGCAAUUAUGAUACUCUGAGAUUUGCUGUUGUGCUUAAAGACAAAAGUCUGGACUCAGCCACAAACUACUACAGCCUGUCCACCUGAAAUCUUGACUUACCCAGUCCCCAUGGAAUUCUCGGGUGCCAA | 0.321
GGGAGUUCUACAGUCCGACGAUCCUAAUAUCUUUAAAUAUAUAUAUAUAUUUUAAAGACCAAUUUAUGGGAGAAUUGCACACAGAUGUGAAAUGAAUGUAAUCUAAUAGAAGCCUAAUCAGCCCACCAUGUUCUGGAAUUCUCGGGUGCCAA | 1.11
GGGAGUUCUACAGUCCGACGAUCUGAGACAGAGAUCGUGAAAGAAGAAGUCGUGAGCCUGCGGUCCAGUCAGUCCAGCUCGGGACCGAUGCCUGCUGUGCCUUCCUGCUGAGGGACACCUGCUUAUUUUCCCCUGGAAUUCUCGGGUGCCAA | 0.616
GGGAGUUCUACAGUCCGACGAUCUCCCUGAGUUCUGCCGGUGAGCUGCCGUCACUGGGAUGCGCCAAGGACCUUUCCUCCCCGGUCUCAGAGAUGCACAUCUCUUUGAGGAUCGGCUUGGCUGGAAGACAGGGUGGAAUUCUCGGGUGCCAA | 0.616
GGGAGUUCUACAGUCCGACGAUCUCCUUCCAAAAUAUUGGCGUUUCUCUCCUACCGCGGUUAGACUGAAGACUGCCUUUCCUGGUAGGCCUGCCAGACAGAGCGCCCUUUACAAGACACACCUCAAGCUUUACUGGAAUUCUCGGGUGCCAA | 0.549
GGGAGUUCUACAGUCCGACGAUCCCCGCACAAAGCGGCUCUAAACCUCAGGCCACAUCUUUUCCAAGGCAAACCCUGUUCAGGCUGGCUCGUAGGCCUGCCGCUUUGAUGGAGGAGGUAUUGUAAGCUUUCCAUGGAAUUCUCGGGUGCCAA | 0.22
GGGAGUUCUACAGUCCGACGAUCACUUGUCCAGUGCUUCACAGUGUUGCUAAUCAGUGGAGAAAUACAUGCUUUCAUUAUCAAGUGUAGUCAGCCGUCUGUUGAGGUCAGGUUUCCUUCCGUUAGCUUUUGGGUGGAAUUCUCGGGUGCCAA | 0.4
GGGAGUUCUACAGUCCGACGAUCAUGUAUCUUCACGUUGUAAAUAUGUUUUGUAGAGUGAAGCCAUGGGAAGCCAUGUGUAACAGAGCUUAGACAUCUGAAACUAAUCAAUGCUGAGGUGGCUAAAUACCUAGUGGAAUUCUCGGGUGCCAA | 0.34
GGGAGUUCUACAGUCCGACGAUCGCAUUAGGAUCCUAUAACCAUGCCUGUCCCUGCUCUGUGUUUUAGGGAAGUGACAUAAAGUGAGGUCGCCCUUGCUAAGUCCUGCUGUCCUCUCUAGAGCCUUCCUCAGAUGGAAUUCUCGGGUGCCAA | 0.927
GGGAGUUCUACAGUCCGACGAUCGACCCCUCUGAGUGGUUGGAGGCAGUGCCCCAGUGCCCAGAAAUCCCACCAUUAGUGAUUGUUUUUUAUGAGAAAGAGGCGUGGAGAAGUAUUGGGGCAAUGUGUCAGGGUGGAAUUCUCGGGUGCCAA | 0.807
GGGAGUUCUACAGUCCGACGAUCUCUCACAAGCGUCCUUCCUCAUAGGAAGGCUCAUCAACUGAAUUUAGUGACAUGUACACAGUAGAUGCUCAAGCAGUGUCUGCAAGGACACAAGCUGAGCUUUCUCCUUAUGGAAUUCUCGGGUGCCAA | 0.274
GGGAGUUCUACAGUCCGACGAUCUCACUCCUCACUUGAGCUGCCUGGACUCGAGGAGCAGAGACUGGACAACCCAGGCGUCAGAAGCCUGUUUCUUACUGUCUCCCCAGAGACUCAAGUGUCUUCUGCUCCCAUGGAAUUCUCGGGUGCCAA | 0.691

Block 2
Target: CCND1, cyclin fold, Cln2 fusion (human)
Method: yeast growth competition, sequencing
Medium: yeast
Notes: weak parent motif
Reference: not given
Direction: higher = stronger binding
Starting sequence: CDAN1 docking peptide (human); RGARSQLFPPTEA; partner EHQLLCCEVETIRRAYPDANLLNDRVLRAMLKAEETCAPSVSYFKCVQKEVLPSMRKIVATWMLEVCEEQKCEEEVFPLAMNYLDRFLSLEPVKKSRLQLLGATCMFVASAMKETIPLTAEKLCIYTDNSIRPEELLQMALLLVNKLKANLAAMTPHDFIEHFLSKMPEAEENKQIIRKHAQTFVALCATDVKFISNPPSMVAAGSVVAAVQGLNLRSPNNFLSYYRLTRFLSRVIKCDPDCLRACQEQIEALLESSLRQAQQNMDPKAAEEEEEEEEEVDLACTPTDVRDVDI
Change | normalised enrichment score
T11A | -0.00481
R4A | -0.0553
R1A | -0.065
P9A | 0.0883
E12A | 0.0411

Block 3
Target: UBE2E1 UBC core domain (UniProt P51965)
Chain of UniProt P51965 (whole entry, looked up): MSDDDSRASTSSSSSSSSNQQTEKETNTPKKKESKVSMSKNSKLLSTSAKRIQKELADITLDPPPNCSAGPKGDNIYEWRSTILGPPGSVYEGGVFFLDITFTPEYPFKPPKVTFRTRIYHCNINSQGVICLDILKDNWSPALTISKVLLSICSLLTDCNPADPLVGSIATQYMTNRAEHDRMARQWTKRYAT
Method: yeast two-hybrid
Medium: yeast
Notes: mostly zero background
Reference: not given
Direction: higher = stronger interaction
B1: RFPL3 RING domain (UniProt O75679); chain MAALFQEASSCPVCSDYLEKPMSLECGCTVCLKCINSLQKEPHGEDLLCCCCSMVSQRNKIRP
B2: MDM2 RING domain (UniProt Q00987); chain TQDKEESVESSLPLNAIEPCVICQGRPKNGCIVHGKTGHLMACFTCAKKLKKRNKPCPVCRQPIQMIVLTYFP
B3: ARIH1 RING domain (UniProt Q9Y4X5); chain NTRSSAQDMPCQICYLNYPNSYFTGLECGHKFCMQCWSEYLTTKIMEEGMGQTISCPAHGCDILVDDNTVM
B4: TRIM68 RING domain (UniProt Q6AZZ1); chain LVEAIVEEVACPICMTFLREPMSIDCGHSFCHSCLSGLWEIPGESQNWGYTCPLCRAPVQPRNLRP
B5: TRIM28 RING domain (UniProt Q13263); chain GAEALELLEHCGVCRERLRPEREPRLLPCLHSACSACLGPAAPAAANSSGDGGAAGDGTVVDCPVCKQQCFSKDIVE
B6: PJA2 RING domain (UniProt O43164); chain DHTAIGQEQCCPICCSEYIKDDIATELPCHHFFHKPCVSIWLQKSGTCPVCRRHFPPAVIEA
B7: RMND5B RING domain (UniProt Q96G75); chain MKCWYHSVFACPILRQQTSDSNPPIKLICGHVISRDALNKLINGGKLKCPYCPMEQNPADGK
Molecule | lacZ reporter activity
B1 (RFPL3 RING domain) | 0
B2 (MDM2 RING domain) | 0
B3 (ARIH1 RING domain) | 0
B4 (TRIM68 RING domain) | 0
FLSKVEETFQCICCQELVFRPITTVCQHNVCKDCLDRSFRAQVFSCPACRYDLGRSYAMQ (UHRF1 RING domain (UniProt Q96T88)) | 0
GSEEEEIPFRCFICRQAFQNPVVTKCRHYFCESCALEHFRATPRCYICDQPTGGIFNPA (RNF113B RING domain (UniProt Q8IZP6)) | 0
B5 (TRIM28 RING domain) | 0
B6 (PJA2 RING domain) | 2470
PLRRLQEEKLCKICMDRHIAVVFIPCGHLVTCKQCAEAVDRCPMCSAVIDFKQRVF (BIRC8 RING domain (UniProt Q96P09)) | 0
B7 (RMND5B RING domain) | 13400

Block 4
Target: Centromere-binding protein 1, full length, N-terminal tag (CBF1, Saccharomyces cerevisiae, UniProt P17106, residues 1-351)
Chain of UniProt P17106 (whole entry, looked up): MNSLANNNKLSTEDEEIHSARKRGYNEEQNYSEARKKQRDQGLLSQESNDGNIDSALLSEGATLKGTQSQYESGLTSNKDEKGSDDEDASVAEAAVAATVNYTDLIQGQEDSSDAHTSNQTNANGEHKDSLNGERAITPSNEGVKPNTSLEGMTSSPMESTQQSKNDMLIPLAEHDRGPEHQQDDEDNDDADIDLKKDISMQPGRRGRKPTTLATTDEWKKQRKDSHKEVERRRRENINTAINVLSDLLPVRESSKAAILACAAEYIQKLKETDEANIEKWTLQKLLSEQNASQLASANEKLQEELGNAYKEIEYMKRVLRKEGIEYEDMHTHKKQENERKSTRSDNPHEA
Method: protein-binding microarray
Form: double-stranded DNA, one strand shown
Medium: in vitro
Concentration: 0.8 µM
Notes: whole 60-bp probe, no competitor
Direction: higher = stronger binding
Sequence | fluorescence intensity [a.u.]
TGTACGAAGCTATTGGTGGTGACTATAGTAGTTAGGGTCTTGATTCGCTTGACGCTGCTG | 536
GAATTTTGAGTTTTGCGTGCGTTATCTACTGGGTAGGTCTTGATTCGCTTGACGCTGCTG | 479
GAACCAGTCAAGTTTTCCACCACCTTGACCCTTTAGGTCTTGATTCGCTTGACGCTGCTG | 519
GAACCAGCTAAGTATATCGTGAAAACCAAGAAGTAGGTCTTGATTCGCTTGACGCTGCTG | 531
GAAAATTAGCATATTCACGCGCGACTACCAAACTAGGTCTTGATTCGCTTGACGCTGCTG | 568
GAACCTCGTACTCATGTGATGGAGAAAGGAATTTAGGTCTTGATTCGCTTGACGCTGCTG | 1200
CTACCTTTCCTTAATCATGATCTCTTTAGTGCCTTCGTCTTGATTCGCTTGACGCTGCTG | 583
GAAATATGCCTATGTTTCGTGCTTTTGCCGATTTAGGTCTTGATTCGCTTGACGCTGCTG | 475
TGTACGAAGCTATGAAACGTGCATATAGTAGTTAGGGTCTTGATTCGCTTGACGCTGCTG | 663
GAAAGTGCAGCAAAGCAGCTGATGTGCTGCAAGTAGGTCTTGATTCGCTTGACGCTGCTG | 623
CTAATTAATTGCAATATCATGATGTTATAGAGTTTCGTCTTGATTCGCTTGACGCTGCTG | 554
TGTACGAAGCTATGGCACGGGATTATAGTAGTTAGGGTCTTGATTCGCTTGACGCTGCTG | 962
GAATTCCAAGGTAACCACGTCACATTATACTCATAGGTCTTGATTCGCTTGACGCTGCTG | 671
CTATGTCCAAATTAGGACGTGGTTTATAGCCGATTCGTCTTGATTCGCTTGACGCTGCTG | 510
GAAAGCGAATTTCCTCACATGTAGGGACCGAATTAGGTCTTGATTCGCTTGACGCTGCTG | 617
GAAAGGTTTGCCTTCCACGTTGAAGTACTAAAATAGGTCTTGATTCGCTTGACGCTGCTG | 516
GAAATGTTTGGTTAGCACATGTGTAACTACTGCTAGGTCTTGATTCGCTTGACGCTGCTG | 987

A few entries again (block 4):
Sequence | fluorescence intensity [a.u.]
GAATTTTGAGTTTTGCGTGCGTTATCTACTGGGTAGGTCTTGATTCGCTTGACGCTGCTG | 479
GAACCAGTCAAGTTTTCCACCACCTTGACCCTTTAGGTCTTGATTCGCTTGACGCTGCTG | 519
GAACCAGCTAAGTATATCGTGAAAACCAAGAAGTAGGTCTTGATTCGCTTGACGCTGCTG | 531
GAAAATTAGCATATTCACGCGCGACTACCAAACTAGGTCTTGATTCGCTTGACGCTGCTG | 568
GAACCTCGTACTCATGTGATGGAGAAAGGAATTTAGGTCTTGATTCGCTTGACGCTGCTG | 1200
CTACCTTTCCTTAATCATGATCTCTTTAGTGCCTTCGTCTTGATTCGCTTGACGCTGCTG | 583
